Results gathered from unrelated publications.
Lines come from different studies, so protocols differ. ± gives the spread as reported.
Histone chaperone ASF1A: Histone chaperone ASF1A (Homo sapiens, UniProt Q9Y294)
UniProt Q9Y294, sequence (whole entry, looked up): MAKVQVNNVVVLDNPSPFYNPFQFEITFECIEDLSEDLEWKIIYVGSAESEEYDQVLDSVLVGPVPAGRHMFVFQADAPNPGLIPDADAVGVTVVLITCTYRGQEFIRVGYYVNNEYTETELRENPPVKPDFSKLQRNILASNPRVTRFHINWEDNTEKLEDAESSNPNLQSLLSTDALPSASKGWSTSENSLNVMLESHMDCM
lecA: PA-I galactophilic lectin (lecA, Pseudomonas aeruginosa, UniProt Q05097)
UniProt Q05097, sequence (whole entry, looked up): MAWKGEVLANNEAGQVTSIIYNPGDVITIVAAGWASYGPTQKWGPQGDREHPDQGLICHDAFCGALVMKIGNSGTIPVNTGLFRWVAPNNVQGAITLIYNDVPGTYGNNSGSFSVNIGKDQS
MAOA: Amine oxidase [flavin-containing] A (MAOA, Homo sapiens, UniProt P21397)
UniProt P21397, sequence (whole entry, looked up): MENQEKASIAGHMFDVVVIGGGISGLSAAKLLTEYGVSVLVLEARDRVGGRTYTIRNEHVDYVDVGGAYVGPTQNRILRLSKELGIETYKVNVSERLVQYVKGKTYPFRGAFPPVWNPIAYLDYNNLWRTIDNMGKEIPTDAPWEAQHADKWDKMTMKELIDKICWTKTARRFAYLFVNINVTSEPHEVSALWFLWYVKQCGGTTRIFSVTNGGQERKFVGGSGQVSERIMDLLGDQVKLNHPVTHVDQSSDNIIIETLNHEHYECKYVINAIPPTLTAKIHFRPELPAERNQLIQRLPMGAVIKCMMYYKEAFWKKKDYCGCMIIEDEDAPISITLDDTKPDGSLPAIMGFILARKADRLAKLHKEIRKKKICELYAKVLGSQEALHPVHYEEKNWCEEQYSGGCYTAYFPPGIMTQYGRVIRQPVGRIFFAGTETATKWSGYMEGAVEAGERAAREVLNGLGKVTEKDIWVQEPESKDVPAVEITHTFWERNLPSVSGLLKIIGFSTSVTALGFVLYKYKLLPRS
Complement C3: Complement C3 (Homo sapiens, UniProt P01024)
UniProt P01024, sequence (whole entry, looked up): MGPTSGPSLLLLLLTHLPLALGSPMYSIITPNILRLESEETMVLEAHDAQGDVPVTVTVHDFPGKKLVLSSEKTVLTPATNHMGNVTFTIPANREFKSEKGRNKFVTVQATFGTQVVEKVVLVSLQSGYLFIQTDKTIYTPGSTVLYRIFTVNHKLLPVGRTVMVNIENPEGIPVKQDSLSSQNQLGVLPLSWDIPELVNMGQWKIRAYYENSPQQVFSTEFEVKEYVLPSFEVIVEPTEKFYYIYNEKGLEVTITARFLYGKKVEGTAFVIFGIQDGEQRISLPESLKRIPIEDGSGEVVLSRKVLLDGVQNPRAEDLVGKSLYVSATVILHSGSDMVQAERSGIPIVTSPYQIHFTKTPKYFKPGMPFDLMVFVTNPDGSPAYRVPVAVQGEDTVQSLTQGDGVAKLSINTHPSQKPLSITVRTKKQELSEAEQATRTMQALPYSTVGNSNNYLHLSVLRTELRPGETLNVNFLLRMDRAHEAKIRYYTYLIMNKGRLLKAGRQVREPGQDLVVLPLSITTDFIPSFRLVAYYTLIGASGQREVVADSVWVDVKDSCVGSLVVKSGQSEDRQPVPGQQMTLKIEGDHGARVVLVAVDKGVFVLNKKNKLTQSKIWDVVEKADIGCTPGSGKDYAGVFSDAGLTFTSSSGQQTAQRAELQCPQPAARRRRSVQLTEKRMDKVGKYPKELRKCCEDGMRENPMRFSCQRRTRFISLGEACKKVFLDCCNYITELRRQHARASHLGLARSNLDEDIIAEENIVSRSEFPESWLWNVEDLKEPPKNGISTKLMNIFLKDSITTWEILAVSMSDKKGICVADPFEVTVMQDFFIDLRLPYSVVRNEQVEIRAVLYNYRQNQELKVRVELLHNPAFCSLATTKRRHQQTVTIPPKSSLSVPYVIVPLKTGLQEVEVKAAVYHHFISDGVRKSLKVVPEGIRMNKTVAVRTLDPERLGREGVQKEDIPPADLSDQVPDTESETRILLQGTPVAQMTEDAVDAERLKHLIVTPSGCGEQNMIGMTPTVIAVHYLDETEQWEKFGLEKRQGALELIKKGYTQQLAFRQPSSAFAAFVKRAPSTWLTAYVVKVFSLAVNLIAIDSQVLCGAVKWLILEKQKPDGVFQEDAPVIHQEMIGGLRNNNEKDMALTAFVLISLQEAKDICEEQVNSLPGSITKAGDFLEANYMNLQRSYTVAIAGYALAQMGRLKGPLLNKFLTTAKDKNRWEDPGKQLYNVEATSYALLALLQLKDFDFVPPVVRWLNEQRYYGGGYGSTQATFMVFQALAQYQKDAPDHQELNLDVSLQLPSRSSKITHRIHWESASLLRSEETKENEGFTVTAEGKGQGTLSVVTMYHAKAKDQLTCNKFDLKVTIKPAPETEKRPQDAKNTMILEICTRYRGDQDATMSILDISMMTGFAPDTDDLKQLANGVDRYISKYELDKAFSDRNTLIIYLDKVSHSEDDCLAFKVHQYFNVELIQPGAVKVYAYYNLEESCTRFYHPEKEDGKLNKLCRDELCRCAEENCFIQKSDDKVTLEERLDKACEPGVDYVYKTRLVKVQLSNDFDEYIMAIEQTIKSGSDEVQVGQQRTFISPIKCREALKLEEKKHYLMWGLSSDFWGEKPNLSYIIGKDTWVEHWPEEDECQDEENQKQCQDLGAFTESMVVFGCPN
UniProt Q08460, sequence (whole entry, looked up): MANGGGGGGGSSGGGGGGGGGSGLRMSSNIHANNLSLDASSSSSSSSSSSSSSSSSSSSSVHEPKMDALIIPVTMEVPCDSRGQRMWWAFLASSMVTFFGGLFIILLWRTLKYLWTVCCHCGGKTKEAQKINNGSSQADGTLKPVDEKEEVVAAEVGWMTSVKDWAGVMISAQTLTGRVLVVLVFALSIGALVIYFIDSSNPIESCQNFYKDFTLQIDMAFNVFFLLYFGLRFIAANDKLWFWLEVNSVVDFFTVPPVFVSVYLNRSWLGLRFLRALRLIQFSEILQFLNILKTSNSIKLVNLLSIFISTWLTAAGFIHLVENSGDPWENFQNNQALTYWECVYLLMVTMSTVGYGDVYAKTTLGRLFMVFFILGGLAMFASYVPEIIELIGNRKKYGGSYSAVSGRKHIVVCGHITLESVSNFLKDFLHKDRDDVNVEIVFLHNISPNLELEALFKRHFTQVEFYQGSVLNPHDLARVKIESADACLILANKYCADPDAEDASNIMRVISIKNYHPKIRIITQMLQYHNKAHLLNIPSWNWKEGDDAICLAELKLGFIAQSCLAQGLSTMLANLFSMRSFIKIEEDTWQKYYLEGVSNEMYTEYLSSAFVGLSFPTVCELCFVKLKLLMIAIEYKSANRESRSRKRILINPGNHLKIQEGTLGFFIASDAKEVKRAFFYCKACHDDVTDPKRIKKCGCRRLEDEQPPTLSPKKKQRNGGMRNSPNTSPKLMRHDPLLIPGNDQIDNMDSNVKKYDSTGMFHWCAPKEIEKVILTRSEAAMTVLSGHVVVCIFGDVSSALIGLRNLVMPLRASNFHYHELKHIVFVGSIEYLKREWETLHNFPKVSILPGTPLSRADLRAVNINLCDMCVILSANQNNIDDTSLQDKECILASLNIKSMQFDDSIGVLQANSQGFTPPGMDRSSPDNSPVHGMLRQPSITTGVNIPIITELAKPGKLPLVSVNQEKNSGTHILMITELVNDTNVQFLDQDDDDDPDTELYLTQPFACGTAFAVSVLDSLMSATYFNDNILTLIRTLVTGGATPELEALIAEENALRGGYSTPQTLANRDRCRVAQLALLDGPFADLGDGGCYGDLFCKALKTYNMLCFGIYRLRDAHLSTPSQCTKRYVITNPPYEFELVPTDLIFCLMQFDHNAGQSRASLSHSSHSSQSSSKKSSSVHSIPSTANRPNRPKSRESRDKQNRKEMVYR
UniProt Q99767, sequence (whole entry, looked up): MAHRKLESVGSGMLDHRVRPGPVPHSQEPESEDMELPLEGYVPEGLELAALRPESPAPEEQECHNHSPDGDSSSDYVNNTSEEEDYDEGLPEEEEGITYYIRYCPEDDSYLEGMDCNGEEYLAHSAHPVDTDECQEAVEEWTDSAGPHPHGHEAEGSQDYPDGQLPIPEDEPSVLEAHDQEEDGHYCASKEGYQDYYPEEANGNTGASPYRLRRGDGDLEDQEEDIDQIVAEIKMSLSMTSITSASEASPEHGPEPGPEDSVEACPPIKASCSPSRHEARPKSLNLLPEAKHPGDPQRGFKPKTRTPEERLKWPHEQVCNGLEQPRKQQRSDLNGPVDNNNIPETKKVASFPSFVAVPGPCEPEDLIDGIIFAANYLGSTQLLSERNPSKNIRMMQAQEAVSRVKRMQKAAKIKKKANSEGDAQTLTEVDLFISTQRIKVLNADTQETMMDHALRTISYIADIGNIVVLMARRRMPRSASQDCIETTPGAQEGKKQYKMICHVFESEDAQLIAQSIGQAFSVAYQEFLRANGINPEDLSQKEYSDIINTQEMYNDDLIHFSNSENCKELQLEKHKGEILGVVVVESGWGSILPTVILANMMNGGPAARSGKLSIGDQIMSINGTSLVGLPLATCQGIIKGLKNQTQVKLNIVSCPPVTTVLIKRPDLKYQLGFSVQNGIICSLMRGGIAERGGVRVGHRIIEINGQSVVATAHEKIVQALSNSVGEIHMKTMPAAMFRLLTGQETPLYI
UniProt P63104, sequence (whole entry, looked up): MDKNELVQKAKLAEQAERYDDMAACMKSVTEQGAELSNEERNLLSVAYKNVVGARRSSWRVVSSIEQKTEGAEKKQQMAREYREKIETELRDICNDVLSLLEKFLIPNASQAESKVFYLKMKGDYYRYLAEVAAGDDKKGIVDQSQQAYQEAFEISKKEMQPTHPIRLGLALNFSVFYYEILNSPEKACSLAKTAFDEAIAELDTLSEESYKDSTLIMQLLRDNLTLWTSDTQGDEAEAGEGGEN
UniProt P40337, sequence (whole entry, unmodified, looked up): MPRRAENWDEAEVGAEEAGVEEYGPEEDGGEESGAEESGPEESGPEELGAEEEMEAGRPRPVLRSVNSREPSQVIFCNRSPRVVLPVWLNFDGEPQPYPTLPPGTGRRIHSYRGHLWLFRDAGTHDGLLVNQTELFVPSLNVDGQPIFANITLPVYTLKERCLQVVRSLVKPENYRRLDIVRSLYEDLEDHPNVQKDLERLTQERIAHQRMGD

CC[C@H](C)[C@H](NC(=O)[C@H](CCCNC(=N)N)NC(=O)NC[C@H](CCC(N)=O)NC(=O)NC[C@H](CC(C)C)NC(=O)NC[C@H](CCCNC(=N)N)NC(=O)NC[C@H](Cc1ccc2ccccc2c1)NC(=O)[C@H](CCCNC(=N)N)NC(=O)[C@H](CCC(=O)O)NC(C)=O)C(=O)N[C@@H](C)C(N)=O — -TΔS (Histone chaperone ASF1A; isothermal titration calorimetry; pH 7.5, 20 °C): -3.1 ± 0.2 kcal/mol
CSCC[C@H](NC(C)=O)C(=O)NCC(=O)NCC(=O)N[C@@H](CCC(=O)O)C(=O)N[C@@H](CC(C)C)C(=O)N[C@H](C(=O)N[C@H](C(=O)NCC(=O)N[C@@H](CC(C)C)C(=O)NCC(=O)N[C@@H](C)C(=O)N[C@@H](CC(C)C)C(=O)N[C@@H](CCCNC(=N)N)C(=O)N[C@@H](CCCNC(=N)N)C(=O)N[C@@H](CCCNC(=N)N)C(=O)N[C@@H](CCCCN)C(=O)N[C@@H](CCCNC(=N)N)C(=O)N[C@@H](CC(C)C)C(=O)N[C@@H](CC(C)C)C(=O)N[C@@H](CCC(=O)O)C(=O)N[C@@H](CCC(N)=O)C(=O)N[C@@H](CCC(=O)O)C(=O)N[C@@H](CCCCN)C(=O)N[C@@H](CCCNC(=N)N)C(N)=O)[C@@H](C)O)C(C)C — block time constant (Kcnma1 (Mus musculus, UniProt Q08460); ion current, blocker, inside-out patch clamp; 25 µM, +50 mV): 27 ms
COc1ccc(S(=O)(=O)N2CCN(CC(=O)Nc3ccc(OC)cc3OC)C(=O)C2)cc1 — maximal response (Metabotropic glutamate receptor 4 (GRM4, Homo sapiens, UniProt Q14833); calcium mobilization, positive allosteric modulator; CHO cells expressing Gqi5; added: glutamate; reference: PHCCC maximal response): 18.1 ± 1.3%
[N-]=[N+]=N[C@H]1[C@H](O)[C@@H](O)[C@H](n2cc(CO[C@@H]3O[C@H](CO)[C@H](O)[C@H](O)[C@H]3O)nn2)O[C@@H]1CO — -TΔS (lecA; isothermal titration calorimetry; 298 K): 4.5 ± 0.9 kcal/mol
O=C1Nc2ccc(Cl)cc2/C1=N/N=C/c1cccc(OCc2ccccc2)c1 — remaining activity (MAOA; enzyme activity, inhibitor; 10 µM): 73.9%
CN1CCC=C(c2cc(F)cc3[nH]ccc23)C1 — Emax (5-hydroxytryptamine receptor 2B (HTR2B, Homo sapiens, UniProt P41595); β-arrestin recruitment, agonist): 29%
Nc1ncnc2c1ncn2[C@H]1C[C@H](O)[C@@H](COP(=O)(O)OP(=O)(O)[C@H](Cl)P(=O)(O)O)O1 — delta effective pKa4 (DNA polymerase eta (POLH, Homo sapiens, UniProt Q9Y253); dNTP incorporation, single-turnover kinetics; W sequence, A·T pair; reference: non-enzymatic LFER line): 0.1 pK units
CCCC[C@@H](CNC(=O)N[C@@H](CCC(N)=O)CNC(=O)N[C@@H](CCCNC(=N)N)C(=O)N[C@H](C(=O)N[C@@H](C)C(N)=O)[C@@H](C)CC)NC(=O)NC[C@H](CCCNC(=N)N)NC(=O)NC[C@H](Cc1ccc2ccccc2c1)NC(=O)[C@H](CCCCN)NC(=O)[C@H](CCC(=O)O)NC(C)=O — -TΔS (Histone chaperone ASF1A; isothermal titration calorimetry; pH 7.5, 20 °C): -4.6 ± 0.4 kcal/mol
O=c1c2sccc2n(CC2COc3ccccc3O2)c(=O)n1O (stereo not drawn) — kcat (Flap endonuclease 1 (Homo sapiens, UniProt P39748); inhibitor; added: double-flap substrate DF1): 140 ± 9 min⁻¹
Cc1ncsc1-c1ccc(CNC(=O)[C@@H]2C[C@@H](O)CN2C(=O)[C@@H](NC(=O)COCCOCCOCCNC(=O)C[C@@H]2N=C(c3ccc(Cl)cc3)c3c(sc(C)c3C)-n3c(C)nnc32)C(C)(C)C)cc1 — ΔG (BRD2/VHL, BD1; with VCB (Homo sapiens, UniProt P25440+P40337); ITC; Brd2^BD1, ternary): -20.3 ± 0.2 kcal/mol
CC(=O)N[C@@H](CC(C)C)C(=O)N[C@@H](CO)C(=O)N[C@@H](CC(=O)O)C(=O)N[C@@H](CO)C(=O)N1CCC[C@H]1C(=O)N[C@@H](CC(N)=O)C(=O)NCC(=O)N1CCC[C@H]1C(=O)N[C@@H](Cc1c[nH]c2ccccc12)C(=O)N[C@H](C(=O)N[C@@H](Cc1c[nH]c2ccccc12)C(=O)N[C@H](C(=O)N1CCC[C@H]1C(=O)N[C@@H](C)C(=O)N[C@@H](Cc1ccccc1)C(=O)N[C@@H](CO)C(=O)N[C@@H](CCC(N)=O)C(=O)N[C@@H](C)C(=O)N[C@H](C(=O)NCC(=O)O)C(C)C)C(C)C)C(C)C — binding (HIV-1 gp120 HxBc2; 5 µM, immobilised biotinylated peptide): no binding
O=C(CCCCCCS)Nc1ccccc1 — temperature where ΔG equals ΔH (Histone deacetylase 8 (HDAC8, Homo sapiens, UniProt Q9BY41); temperature-dependent ITC): 310 K
O=C1c2ccc(O)cc2OC2c3cc(-c4coc5cc(O)ccc5c4=O)ccc3OC12c1ccc(O)cc1 (stereo not drawn) — Hill coefficient (laccase (Trametes versicolor); substrate, Hill kinetic model; product formation): 1.45
O=C(Cc1ccccc1O)N[C@@H](Cc1cn(CCNC(=O)c2ccc(S[C@@H]3O[C@H](CO)[C@H](O)[C@H](O)[C@H]3O)cc2)nn1)C(=O)NCCO — −TΔS (lecA; binding, isothermal titration calorimetry; 25 °C): 12.2 ± 0.1 kJ/mol
CN(C)S(=O)(=O)c1ccc(S(=O)(=O)N2CCC(n3c(=O)[nH]c4ccccc43)CC2)cc1 — ATPase activity (DNA excision repair protein ERCC-6 (ERCC6, Homo sapiens, UniProt Q03468); 100 µM): no effect
CN[C@H](C)C(=O)NCC(=O)N[C@@H](Cc1ccc(O)cc1)C(=O)N[C@H]1CCCCNC(=O)C[C@@H](C(=O)N[C@@H](Cc2cccc3ccccc23)C(=O)N[C@@H](Cc2cccc3ccccc23)C(=O)N[C@H](CCC(=O)O)C(=O)O)NC(=O)[C@H](Cc2ccc(O)cc2)NC(=O)[C@H]([C@@H](C)O)NC(=O)[C@@H]2CCCN2C(=O)[C@H](CC(N)=O)NC1=O — binding affinity (Amyloid-beta A4 precursor protein-binding family A member 2, PTB-ARM region (APBA2, Homo sapiens, UniProt Q99767); ITC; concentration not given; reference: APP wild-type peptide): 46 fold
CC[C@H](C)[C@H](NC(C)=O)C(=O)N[C@H]1CSSC[C@@H](C(=O)N[C@H](C(N)=O)[C@@H](C)O)NC(=O)[C@H](CCCNC(=N)N)NC(=O)[C@H](Cc2c[nH]cn2)NC(=O)[C@@H]2CCCN2C(=O)CNC(=O)[C@H](Cc2c[nH]c3ccccc23)NC(=O)[C@H](CC(=O)O)NC(=O)[C@H](CCC(N)=O)NC(=O)[C@H](Cc2cn(C)c3ccccc23)NC(=O)[C@H](C(C)C)NC1=O — kon (Complement C3, C3b fragment (Homo sapiens, UniProt P01024); SPR; pH 7.4, 25 °C): 750000 ± 80000 M⁻¹ s⁻¹
NS(=O)(=O)c1ccc(NC(=O)c2ccccc2SSc2ccccc2C(=O)Nc2ccc(S(N)(=O)=O)cc2)cc1 — Hill coefficient (Gag-Pol polyprotein, integrase core 50-213 (gag-pol, Human immunodeficiency virus type 1 group M subtype B, UniProt P04585); DNA binding, fluorescence anisotropy; integrase CC; compound:IN ratio 3:1, added: 10 mM Mg2+, U5 DNA): 1.32
O=C(NC1CCCCC1)C(c1cccnc1)N(C(=O)CCl)c1ccc(F)cc1 (racemic) — modified species fraction (Glutathione S-transferase omega-1 (GSTO1, Homo sapiens, UniProt P78417); LC-MS/MS, refers to: active site Cys32 peptide; 10 µM, 30 min, GSTO1 50 µM): 99.4%
CC[C@H](C)[C@H](NC(C)=O)C(=O)N[C@H]1CSSC[C@@H](C(=O)N[C@H](C(N)=O)[C@@H](C)O)NC(=O)[C@H](CCCNC(=N)N)NC(=O)[C@H](Cc2c[nH]cn2)NC(=O)[C@H](C)NC(=O)CNC(=O)[C@H](Cc2c[nH]c3ccccc23)NC(=O)[C@H](CC(=O)O)NC(=O)[C@H](CCC(N)=O)NC(=O)[C@H](Cc2ccc(OC)cc2)NC(=O)[C@H](C(C)C)NC1=O — ΔG (Complement C3; ITC; 25 °C; more negative = stronger binding): -9.5 kcal/mol
Cc1cc(O)c2c(c1)C(=O)c1cc(O)c(O)c(O)c1C2=O — Kiu (MAOA; inhibitor, Lineweaver-Burk secondary plot; uncompetitive component): 9.33 µM
CC[C@H](C)[C@H](NC(=O)[C@H](CCCNC(=N)N)NC(=O)[C@H](CCCCN)NC(=O)[C@@H](NC(=O)[C@H](C)NC(=O)[C@H](CCCNC(=N)N)NC(=O)[C@H](CCC(N)=O)NC(=O)[C@H](CO)NC(=O)[C@H](CCCCN)NC(=O)[C@H](CC(N)=O)NC(=O)[C@@H](N)CCCNC(=N)N)[C@@H](C)O)C(=O)N[C@@H](COP(=O)(O)O)C(=O)N[C@@H](Cc1c[nH]cn1)C(=O)N[C@@H](CCSC)C(=O)N1CCC[C@H]1C(=O)N[C@@H](CO)C(=O)N[C@@H](CCCNC(=N)N)C(=O)N1CCC[C@H]1C(=O)N[C@@H](CCC(=O)O)C(=O)N[C@@H](CC(C)C)C(=O)N[C@@H](CO)C(=O)N[C@@H](C)C(=O)N[C@H](C(=O)N[C@@H](C)C(=O)N[C@H](C(=O)N[C@@H](CC(=O)O)C(=O)N[C@@H](CC(C)C)C(=O)N[C@@H](CCCNC(=N)N)C(=O)N[C@@H](CCCCN)C(=O)N[C@@H](CC(=O)O)C(=O)N[C@@H](CCCCN)C(=O)N[C@@H](C)C(=O)N[C@@H](CCCCN)C(=O)N[C@@H](COP(=O)(O)O)C(=O)N[C@@H](CS)C(=O)OC)[C@@H](C)O)C(C)C — koff (14-3-3 protein zeta/delta (YWHAZ, Homo sapiens, UniProt P63104); binding): 8.42 s⁻¹
CCC1(CC)C(=O)N(c2cccc(CN3CCN(C)CC3)c2)C1=O — Ki (Dipeptidyl peptidase 9 (DPP9, Homo sapiens, UniProt Q86TI2); inhibitor, Morrison equation): inactive
CC[C@H](C)[C@H](NC(C)=O)C(=O)N[C@H]1CSSC[C@@H](C(=O)N(C)[C@H](C(N)=O)[C@@H](C)CC)NC(=O)[C@H](CCCNC(=N)N)NC(=O)[C@H](Cc2c[nH]cn2)NC(=O)[C@H](C)NC(=O)CN(C)C(=O)[C@H](Cc2c[nH]c3ccccc23)NC(=O)[C@H](CC(=O)O)NC(=O)[C@H](CCC(N)=O)NC(=O)[C@H](Cc2cn(C)c3ccccc23)NC(=O)[C@H](C(C)C)NC1=O — −TΔS of binding (Complement C3; ITC; PBS; concentration not given, pH 7.4, 25 °C): 5.7 kcal/mol

A few entries again:
[N-]=[N+]=N[C@H]1[C@H](O)[C@@H](O)[C@H](n2cc(CO[C@@H]3O[C@H](CO)[C@H](O)[C@H](O)[C@H]3O)nn2)O[C@@H]1CO — -TΔS (lecA; isothermal titration calorimetry; 298 K): 4.5 ± 0.9 kcal/mol
O=C1Nc2ccc(Cl)cc2/C1=N/N=C/c1cccc(OCc2ccccc2)c1 — remaining activity (MAOA; enzyme activity, inhibitor; 10 µM): 73.9%
